Published values pooled from the literature.
Every numbered part comes from another study and shows a few of its results, in no order. Changes are numbered by the printed parent chain.

Study 1 — technique: aptamer microarray, sandwich; form: DNA with 2'F-ANA; medium: in vitro; concentration: 200 nM; added: Cy3 exosite-II aptamer, 400 nM; reading: higher = stronger binding; sequence: GGTTGGTGTGGTTGG
Target: Prothrombin, mature alpha-thrombin (F2, Homo sapiens, UniProt P00734)
Notes: whole 15-mer aptamer, many near background
`2'F-ANA at 1 6 7 9 10 11 12 14` — result for “mean fluorescence intensity”: 45 a.u.
`2'F-ANA at 5 7 8 9 13 14 15` — result for “mean fluorescence intensity”: 51.4 a.u.
`2'F-ANA at 1 2 3 4 5 7 9 10 11`: “mean fluorescence intensity” 53.6 a.u.
Under “mean fluorescence intensity”, `2'F-ANA at 2 4 5 6 7 9` is recorded as 71.3 a.u.
Under “mean fluorescence intensity”, `2'F-ANA at 3 5 7 8 9 11 12 15` is recorded as 224 a.u.
`2'F-ANA at 1 3 5 6 9 10 13 14`: “mean fluorescence intensity” 49.9 a.u.
For `2'F-ANA at 3 5 6 9 11`, “mean fluorescence intensity” read 105 a.u.

Study 2 — target: CCNB2, cyclin fold, Cln2 fusion (human); technique: yeast growth competition, sequencing; medium: yeast; notes: strong parent motif; relative to: not given; reading: higher = stronger binding
Starting sequence: PKMYT1 docking peptide (human); SFEPRNLLSLFED
Under “normalised enrichment score”, `L7G` is recorded as -0.527.
For `S1E`, “normalised enrichment score” read 1.44.
`L10C`: “normalised enrichment score” 1.12.
`S1A` — result for “normalised enrichment score”: 1.56.

Study 3 — technique: RNAcompete; form: RNA; medium: in vitro; concentration: 20 nM; notes: 7-mer, probes averaged, single round; relative to: mean of 7-mers; reading: higher = stronger binding
Target: PABPC1L2, full length, GST fusion (mouse, UniProt A0ABA7IW68)
Target sequence (chain): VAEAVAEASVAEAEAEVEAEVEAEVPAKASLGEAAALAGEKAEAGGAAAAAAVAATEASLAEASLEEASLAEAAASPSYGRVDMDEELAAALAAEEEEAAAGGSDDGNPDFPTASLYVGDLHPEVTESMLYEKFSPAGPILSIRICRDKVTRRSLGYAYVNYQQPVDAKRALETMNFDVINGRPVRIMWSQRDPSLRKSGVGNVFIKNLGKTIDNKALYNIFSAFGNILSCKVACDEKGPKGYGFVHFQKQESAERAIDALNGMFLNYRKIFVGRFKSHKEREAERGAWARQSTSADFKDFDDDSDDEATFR
With `UAUCCCU` the 7-mer Z-score was -0.331.
`CGUUAGG` has a 7-mer Z-score of -0.32.
For `CGUGUGG`, the 7-mer Z-score was 0.142.
With `GAAAGGA` the 7-mer Z-score was 0.349.
`UUGUUUA` gave a 7-mer Z-score of -0.335.
`GCUCAUG` has a 7-mer Z-score of -0.122.
With `CUCCCGA` the 7-mer Z-score was -0.248.

Other studies, line by line
The fold induction of `PhoQ, residues 284 288 289 292 302 303 TYGVAM` is reported as 23.7 (PhoP, residues 12 14 15 18 19 TQAML (Escherichia coli, UniProt P23836); Sort-seq, measured: YFP reporter; E. coli; PhoQ-PhoP variant library, added: 10 µM Mg2+; relative to: high Mg2+ state, higher = stronger signaling).
